Results of several laboratories.
Every numbered part comes from another study and shows a few of its results, in no order.

Block 1 — method: protein binding microarray; molecule type: double-stranded DNA, one strand shown; sample: in vitro; tested at: not given; relative to: not given; direction: higher = stronger binding
Target: Histone acetyltransferase KAT6A, winged helix 1, GST fusion (KAT6A, Homo sapiens, UniProt Q92794, residues 1-85)
Notes: 8-mer, flanks averaged, mean of 2 arrays, mostly near background
Residues (chain): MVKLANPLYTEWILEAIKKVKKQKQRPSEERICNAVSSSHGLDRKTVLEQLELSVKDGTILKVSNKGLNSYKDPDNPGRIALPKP
Strand | E-score
CATATTCA | -0.176
CGACGTCA | 0.0848
CCAGGGAG | -0.269
CAGCGGCG | 0.411

Block 2 — method: protein-binding microarray; molecule type: double-stranded DNA, one strand shown; sample: in vitro; tested at: 2200 nM top; notes: 60-bp whole probe; added: salmon DNA 0.4 mg/ml; relative to: random background probes; direction: higher = stronger binding
Target: Interferon regulatory factor 7, full length, phosphomimetic (IRF7, Homo sapiens, UniProt Q92985, residues 1-503, S471D/S472D/S475D/S476D/S477D/S483D/S484D/S487D)
UniProt Q92985, sequence (whole entry, unmodified, looked up): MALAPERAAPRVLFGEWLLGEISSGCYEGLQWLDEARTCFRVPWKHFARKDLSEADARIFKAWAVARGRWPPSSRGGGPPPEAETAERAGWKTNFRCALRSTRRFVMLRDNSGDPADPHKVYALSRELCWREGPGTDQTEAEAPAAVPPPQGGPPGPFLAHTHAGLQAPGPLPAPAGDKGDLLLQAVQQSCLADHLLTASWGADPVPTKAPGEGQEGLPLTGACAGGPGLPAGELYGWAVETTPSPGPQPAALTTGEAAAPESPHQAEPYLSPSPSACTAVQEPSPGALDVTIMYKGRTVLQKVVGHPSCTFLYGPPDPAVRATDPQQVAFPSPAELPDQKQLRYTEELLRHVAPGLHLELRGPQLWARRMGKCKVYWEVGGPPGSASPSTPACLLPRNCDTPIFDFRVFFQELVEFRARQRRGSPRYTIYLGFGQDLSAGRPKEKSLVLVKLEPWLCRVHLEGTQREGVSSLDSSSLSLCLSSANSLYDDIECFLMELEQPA
Strand | fitted relative affinity
GCCTAGCACTCCTGTATGGATGTGTCTTAGTGCTAGGTCTTGATTCGCTTGACGCTGCTG | 0.844 z-score
GCCTAGCACGACGGACTGGTGTATCGGGACGTGCTAGTCTTGATTCGCTTGACGCTGCTG | -0.895 z-score
GCCTAGCACTTAGAACTGGGGTTTCAATTAGTGCTAGTCTTGATTCGCTTGACGCTGCTG | 0.0399 z-score

Block 3 — method: competition protein-binding microarray; molecule type: double-stranded DNA, one strand shown; sample: in vitro; tested at: 2 µM; added: Pho4 competitor, 0.05 µM; direction: higher = stronger binding
Target: Centromere-binding protein 1, full length, His-tagged (CBF1, Saccharomyces cerevisiae, UniProt P17106, residues 1-351)
UniProt P17106, sequence (whole entry, looked up): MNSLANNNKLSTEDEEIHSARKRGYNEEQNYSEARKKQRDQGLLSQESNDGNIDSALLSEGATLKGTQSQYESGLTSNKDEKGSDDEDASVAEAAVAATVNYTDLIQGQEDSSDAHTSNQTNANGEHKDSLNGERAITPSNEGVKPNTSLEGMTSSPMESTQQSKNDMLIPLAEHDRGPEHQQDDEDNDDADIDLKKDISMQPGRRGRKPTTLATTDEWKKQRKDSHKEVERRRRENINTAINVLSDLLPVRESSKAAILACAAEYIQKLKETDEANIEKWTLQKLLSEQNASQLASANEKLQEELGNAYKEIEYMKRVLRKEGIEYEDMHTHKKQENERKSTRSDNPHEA
Notes: whole 60-bp probe, lowest competitor level
Strand | fluorescence intensity [a.u.]
CGTCTAGCAATACCGCACATGTTATTTGTGCTGTAGGTCTTGATTCGCTTGACGCTGCTG | 137
TGCGCAACAACTTGTATAGTGGGTGTATGTCTAGAAGTCTTGATTCGCTTGACGCTGCTG | 74.5
TAACGAAAATGTTAGCACGTCGCGTTTATGGCCCCAGTCTTGATTCGCTTGACGCTGCTG | 89.5

Other studies, line by line
Substance | target | assay | system | setting | how to read | quantity | result
PhoQ, residues 284 288 289 292 302 303 QWQEDG | PhoP, residues 12 14 15 18 19 DLLYY (Escherichia coli, UniProt P23836) | Sort-seq, measured: YFP reporter | E. coli | PhoQ-PhoP variant library, added: 10 µM Mg2+ | relative to: high Mg2+ state, higher = stronger signaling | fold induction | 2.34
